Assay results of several laboratories.
Every numbered part comes from another study and shows a few of its results, in no order.
UniProt Q6XUX3, sequence (whole entry, looked up): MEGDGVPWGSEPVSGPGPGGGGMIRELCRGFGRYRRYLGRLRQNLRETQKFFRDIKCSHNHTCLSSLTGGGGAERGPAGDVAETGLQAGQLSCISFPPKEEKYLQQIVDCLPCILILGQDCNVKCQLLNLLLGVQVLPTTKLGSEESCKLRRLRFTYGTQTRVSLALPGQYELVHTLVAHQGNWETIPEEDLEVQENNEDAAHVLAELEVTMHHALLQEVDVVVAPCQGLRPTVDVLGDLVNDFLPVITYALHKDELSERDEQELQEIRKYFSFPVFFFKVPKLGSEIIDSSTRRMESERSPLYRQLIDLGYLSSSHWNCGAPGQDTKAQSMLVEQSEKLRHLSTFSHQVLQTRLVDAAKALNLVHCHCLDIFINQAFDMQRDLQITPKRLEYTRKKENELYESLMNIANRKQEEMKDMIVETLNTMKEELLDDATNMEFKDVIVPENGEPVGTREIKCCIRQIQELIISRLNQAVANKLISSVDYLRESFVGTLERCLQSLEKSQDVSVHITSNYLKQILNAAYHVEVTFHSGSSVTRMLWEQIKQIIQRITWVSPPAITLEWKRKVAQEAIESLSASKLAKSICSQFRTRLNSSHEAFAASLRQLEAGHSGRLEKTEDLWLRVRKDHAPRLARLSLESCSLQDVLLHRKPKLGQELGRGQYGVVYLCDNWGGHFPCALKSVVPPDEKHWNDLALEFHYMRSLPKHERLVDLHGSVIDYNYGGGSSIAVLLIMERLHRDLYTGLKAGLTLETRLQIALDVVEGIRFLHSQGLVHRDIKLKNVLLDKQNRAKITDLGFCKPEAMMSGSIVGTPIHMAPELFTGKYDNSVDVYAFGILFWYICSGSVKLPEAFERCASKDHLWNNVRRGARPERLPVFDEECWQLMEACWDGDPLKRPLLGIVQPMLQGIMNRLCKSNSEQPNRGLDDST
UniProt P0C1S8, sequence (whole entry, looked up): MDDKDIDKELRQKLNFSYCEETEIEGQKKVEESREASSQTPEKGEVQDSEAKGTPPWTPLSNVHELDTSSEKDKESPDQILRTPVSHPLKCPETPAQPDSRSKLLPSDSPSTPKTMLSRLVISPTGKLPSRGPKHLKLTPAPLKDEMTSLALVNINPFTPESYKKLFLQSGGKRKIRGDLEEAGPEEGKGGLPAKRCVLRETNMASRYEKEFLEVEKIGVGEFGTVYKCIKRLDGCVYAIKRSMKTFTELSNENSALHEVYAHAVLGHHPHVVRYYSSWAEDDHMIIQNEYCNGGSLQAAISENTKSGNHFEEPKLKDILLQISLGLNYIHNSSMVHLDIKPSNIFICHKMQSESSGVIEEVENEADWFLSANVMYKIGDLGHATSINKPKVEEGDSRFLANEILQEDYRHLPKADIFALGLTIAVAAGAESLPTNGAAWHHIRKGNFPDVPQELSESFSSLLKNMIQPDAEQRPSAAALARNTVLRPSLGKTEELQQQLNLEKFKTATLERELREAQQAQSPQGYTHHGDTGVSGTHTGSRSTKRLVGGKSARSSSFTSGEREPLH
UniProt Q8NEV4, sequence (whole entry, looked up): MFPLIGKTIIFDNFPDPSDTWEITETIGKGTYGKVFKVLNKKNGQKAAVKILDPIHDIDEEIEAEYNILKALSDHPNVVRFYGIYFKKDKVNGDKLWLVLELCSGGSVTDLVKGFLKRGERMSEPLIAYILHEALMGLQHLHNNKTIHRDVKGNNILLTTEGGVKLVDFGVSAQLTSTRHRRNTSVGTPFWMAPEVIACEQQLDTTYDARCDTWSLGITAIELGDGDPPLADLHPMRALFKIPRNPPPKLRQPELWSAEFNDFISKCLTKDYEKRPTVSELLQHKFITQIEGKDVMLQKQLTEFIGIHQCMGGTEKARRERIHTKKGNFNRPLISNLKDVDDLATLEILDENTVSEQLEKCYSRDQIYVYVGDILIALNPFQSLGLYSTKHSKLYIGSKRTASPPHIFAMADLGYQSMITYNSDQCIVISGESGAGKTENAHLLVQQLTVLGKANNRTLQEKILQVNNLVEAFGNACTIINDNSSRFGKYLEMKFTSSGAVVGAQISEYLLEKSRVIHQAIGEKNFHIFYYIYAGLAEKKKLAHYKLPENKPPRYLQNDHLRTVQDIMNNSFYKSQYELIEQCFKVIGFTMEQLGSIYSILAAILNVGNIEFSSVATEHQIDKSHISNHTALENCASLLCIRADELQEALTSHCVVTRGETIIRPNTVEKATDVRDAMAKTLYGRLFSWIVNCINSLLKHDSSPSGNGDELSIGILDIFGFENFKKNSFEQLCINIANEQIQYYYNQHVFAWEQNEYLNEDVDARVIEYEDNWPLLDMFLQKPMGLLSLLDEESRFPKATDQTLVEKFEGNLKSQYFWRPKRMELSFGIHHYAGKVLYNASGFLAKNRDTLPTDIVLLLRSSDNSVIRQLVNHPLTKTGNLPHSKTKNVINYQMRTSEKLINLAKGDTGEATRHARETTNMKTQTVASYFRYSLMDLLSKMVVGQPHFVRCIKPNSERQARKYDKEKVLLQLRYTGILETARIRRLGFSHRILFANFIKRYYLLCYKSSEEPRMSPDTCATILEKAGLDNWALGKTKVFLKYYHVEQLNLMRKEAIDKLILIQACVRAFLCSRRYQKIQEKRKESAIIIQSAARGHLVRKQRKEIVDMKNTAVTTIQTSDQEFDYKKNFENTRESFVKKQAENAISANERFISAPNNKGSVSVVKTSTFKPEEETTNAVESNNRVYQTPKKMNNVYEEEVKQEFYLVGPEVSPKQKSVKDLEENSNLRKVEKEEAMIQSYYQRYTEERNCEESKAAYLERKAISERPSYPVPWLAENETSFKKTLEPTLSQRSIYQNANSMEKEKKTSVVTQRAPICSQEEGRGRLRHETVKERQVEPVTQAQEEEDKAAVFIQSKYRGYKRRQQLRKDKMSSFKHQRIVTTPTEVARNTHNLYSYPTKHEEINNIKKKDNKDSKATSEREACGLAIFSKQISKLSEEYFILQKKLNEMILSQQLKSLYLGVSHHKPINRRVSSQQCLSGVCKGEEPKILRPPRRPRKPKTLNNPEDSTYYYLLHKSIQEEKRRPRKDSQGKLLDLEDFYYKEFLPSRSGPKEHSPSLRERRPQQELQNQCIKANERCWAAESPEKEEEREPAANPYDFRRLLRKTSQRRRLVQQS
UniProt Q9NY57, sequence (whole entry, looked up): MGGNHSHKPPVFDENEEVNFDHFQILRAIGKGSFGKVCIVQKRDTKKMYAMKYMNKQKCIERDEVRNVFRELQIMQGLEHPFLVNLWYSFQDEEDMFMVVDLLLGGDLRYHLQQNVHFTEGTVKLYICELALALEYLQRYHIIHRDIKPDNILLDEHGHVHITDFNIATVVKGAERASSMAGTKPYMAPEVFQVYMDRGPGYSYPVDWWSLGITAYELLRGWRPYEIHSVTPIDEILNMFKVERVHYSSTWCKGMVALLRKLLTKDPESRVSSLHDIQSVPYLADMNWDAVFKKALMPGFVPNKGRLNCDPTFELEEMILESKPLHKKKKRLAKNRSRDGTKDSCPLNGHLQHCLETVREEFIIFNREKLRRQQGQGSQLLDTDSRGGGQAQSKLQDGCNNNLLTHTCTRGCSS
UniProt P36507, sequence (whole entry, looked up): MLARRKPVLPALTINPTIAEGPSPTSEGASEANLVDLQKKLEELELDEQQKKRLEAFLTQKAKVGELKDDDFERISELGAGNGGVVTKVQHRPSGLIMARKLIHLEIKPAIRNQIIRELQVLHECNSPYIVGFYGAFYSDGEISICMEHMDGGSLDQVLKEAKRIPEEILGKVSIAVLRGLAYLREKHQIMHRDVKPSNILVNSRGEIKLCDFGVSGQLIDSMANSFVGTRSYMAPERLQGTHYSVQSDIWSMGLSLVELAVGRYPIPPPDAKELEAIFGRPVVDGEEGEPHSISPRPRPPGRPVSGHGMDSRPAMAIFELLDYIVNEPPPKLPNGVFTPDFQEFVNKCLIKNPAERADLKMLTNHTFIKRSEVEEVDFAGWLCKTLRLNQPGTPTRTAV
UniProt Q9Y6M4, sequence (whole entry, looked up): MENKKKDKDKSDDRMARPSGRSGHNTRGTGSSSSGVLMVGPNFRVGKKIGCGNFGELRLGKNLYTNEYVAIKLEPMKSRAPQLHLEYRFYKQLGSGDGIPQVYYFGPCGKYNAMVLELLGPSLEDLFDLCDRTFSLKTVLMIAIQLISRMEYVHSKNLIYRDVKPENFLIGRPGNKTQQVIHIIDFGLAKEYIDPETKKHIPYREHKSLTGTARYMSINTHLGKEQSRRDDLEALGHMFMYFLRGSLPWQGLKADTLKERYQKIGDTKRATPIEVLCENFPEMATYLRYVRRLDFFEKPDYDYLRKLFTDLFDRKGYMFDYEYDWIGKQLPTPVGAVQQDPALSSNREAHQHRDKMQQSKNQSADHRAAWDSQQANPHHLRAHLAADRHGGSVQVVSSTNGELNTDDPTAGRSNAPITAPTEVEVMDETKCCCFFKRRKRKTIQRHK
UniProt Q86YV6, sequence (whole entry, looked up): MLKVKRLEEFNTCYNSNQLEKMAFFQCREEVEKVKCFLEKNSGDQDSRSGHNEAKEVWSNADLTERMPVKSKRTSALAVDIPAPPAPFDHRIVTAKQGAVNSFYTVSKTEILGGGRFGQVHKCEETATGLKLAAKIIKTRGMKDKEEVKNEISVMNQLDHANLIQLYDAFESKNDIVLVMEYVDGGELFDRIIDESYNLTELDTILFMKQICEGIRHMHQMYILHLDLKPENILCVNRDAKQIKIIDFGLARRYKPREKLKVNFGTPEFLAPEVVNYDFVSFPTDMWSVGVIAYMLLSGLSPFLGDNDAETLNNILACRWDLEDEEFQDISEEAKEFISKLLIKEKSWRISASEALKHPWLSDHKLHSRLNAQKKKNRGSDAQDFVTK
UniProt Q96PN8, sequence (whole entry, looked up): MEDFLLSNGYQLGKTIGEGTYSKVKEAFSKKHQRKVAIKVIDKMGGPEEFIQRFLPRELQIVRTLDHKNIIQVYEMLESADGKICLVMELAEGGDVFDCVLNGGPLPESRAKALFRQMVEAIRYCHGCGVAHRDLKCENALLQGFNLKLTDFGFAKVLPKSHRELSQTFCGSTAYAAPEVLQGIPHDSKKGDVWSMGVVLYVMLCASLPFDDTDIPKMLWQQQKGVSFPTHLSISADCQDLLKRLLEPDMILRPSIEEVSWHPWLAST

Set 1
Compound: COc1ccc2c(c1)O[C@H](c1ccc(OC)c(OC)c1)C[C@@H]2NC(=O)C1(c2ccc3c(c2)OC(F)(F)O3)CC1
Method: competition with immobilised ligand
Tested at: 1 µM
It gave 96% for remaining binding (PIK3C2B (Homo sapiens, UniProt O00750); cell-free assay).
It gave 72% for remaining binding (HUNK (Homo sapiens, UniProt P57058); cell-free assay).
It gave 100% for remaining binding (MST1R (Homo sapiens, UniProt Q04912); cell-free assay).
The remaining binding was 100% (CSNK1G3 (Homo sapiens, UniProt Q9Y6M4); cell-free assay).
It gave 98% for remaining binding (BMPR1A (Homo sapiens, UniProt P36894); binding).
PRKD2 (Homo sapiens, UniProt Q9BZL6); cell-free assay — remaining binding: 100%.
TSSK3 (Homo sapiens, UniProt Q96PN8); cell-free assay — remaining binding: 100%.
PRKAA2 (Homo sapiens, UniProt P54646); cell-free assay — remaining binding: 98%.
It gave 59% for remaining binding (EGFR (Homo sapiens, UniProt P00533, del747-752/P753S); cell-free assay).
The remaining binding was 100% (Myosin-IIIa (MYO3A, Homo sapiens, UniProt Q8NEV4); binding).
Tyrosine-protein kinase ABL1, non-phosphorylated (ABL1, Homo sapiens, UniProt P00519, F317L); cell-free assay — remaining binding: 97%.
The remaining binding was 100% (MAP2K2 (Homo sapiens, UniProt P36507); cell-free assay).
CDK11B (Homo sapiens, UniProt P21127); cell-free assay — remaining binding: 100%.
It gave 98% for remaining binding (TESK1 (Homo sapiens, UniProt Q15569); cell-free assay).
The remaining binding was 100% (MYLK4 (Homo sapiens, UniProt Q86YV6); cell-free assay).

Set 2
Method: PRP chromatography
Setting: linear fit, 1 mL
The logD 1,9-decadiene/water of CC(C)C[C@@H]1NC(=O)[C@H](CC(C)C)NC(=O)[C@@H](CC(C)C)NC(=O)[C@@H](C)NC(=O)[C@H](C(C)C)NC(=O)[C@H](C)NC(=O)[C@H](C)NC1=O is reported as -2.32 log units.
CC(C)C[C@@H]1NC(=O)[C@H](Cc2cscn2)NC(=O)[C@H](CCC(=O)N2CCCC2)NC(=O)[C@H](CC(C)C)NC(=O)[C@@H](Cc2cscn2)NC(=O)[C@H](CC(C)C)NC(=O)[C@@H](CC(C)C)NC1=O has a logD 1,9-decadiene/water of -0.922 log units.
CC(C)C[C@@H]1NC(=O)[C@H](Cc2cscn2)NC(=O)[C@H](C)NC(=O)[C@H](CCC(=O)N2CCCC2)NC(=O)[C@@H](CCC(=O)N2CCCC2)NC(=O)[C@H](CC(C)C)NC(=O)[C@@H](CC(C)C)NC1=O has a logD 1,9-decadiene/water of -2.52 log units.
With CC(C)C[C@@H]1NC(=O)[C@H](C)NC(=O)[C@@H](CC(C)C)NC(=O)[C@@H](CCC(=O)N2CCCC2)NC(=O)[C@H](CC(C)C)NC(=O)[C@@H](CC(C)C)NC(=O)[C@H](CC(C)C)NC1=O the logD 1,9-decadiene/water was 0.0587 log units.
CC(C)C[C@@H]1NC(=O)[C@H](CC(C)C)NC(=O)[C@@H](CC(C)C)NC(=O)[C@H](C(C)C)NC(=O)[C@H](C(C)C)NC(=O)[C@H](C)NC(=O)[C@H](C)NC1=O gave a logD 1,9-decadiene/water of -1.21 log units.
For CC(C)C[C@@H]1NC(=O)[C@H](C)NC(=O)[C@H](CCC(=O)N2CCCC2)NC(=O)[C@H](C)NC(=O)[C@H](CC(C)C)NC(=O)[C@H](CC(C)C)NC(=O)[C@H](CC(C)C)NC1=O, the logD 1,9-decadiene/water was -1.43 log units.
CC(C)C[C@@H]1NC(=O)[C@H](C(C)C)NC(=O)[C@H](C)NC(=O)[C@H](CC(C)C)NC(=O)[C@H](C(C)C)NC(=O)[C@H](CC(C)C)NC(=O)[C@@H](CC(C)C)NC1=O has a logD 1,9-decadiene/water of 0.0587 log units.

Set 3
Compound: COc1ccc2[nH]c3c4[nH]c5ccc(OC)cc5c4c4c(c3c2c1)C(=O)NC4=O
Tested at: 1 µM
The remaining binding was 97% (STK32B (Homo sapiens, UniProt Q9NY57); binding).
It gave 87% for remaining binding (WEE2 (Homo sapiens, UniProt P0C1S8); binding, competition with immobilised ligand).
It gave 68% for remaining binding (FGR (Homo sapiens, UniProt P09769); cell-free assay, competition with immobilised ligand).
For DSTYK (Homo sapiens, UniProt Q6XUX3); binding: remaining binding read 27%.
It gave 51% for remaining binding (EGFR (Homo sapiens, UniProt P00533); binding, competition with immobilised ligand).

Set 4
Cell line: HaCaT
Tested at: 100 µM
Time: 36 h
CC[C@H]1OC(=O)[C@H](C)[C@@H](O[C@H]2C[C@@](C)(OC)[C@@H](O)[C@H](C)O2)[C@H](C)[C@@H](O[C@@H]2O[C@H](C)C[C@H](N(C)C)[C@H]2O)[C@](C)(O)C[C@@H](C)/C(=N\OCOCCOC)[C@H](C)[C@@H](O)[C@]1(C)O gave a viability of 61.8%.
With CCOc1cc(CC(=O)N[C@@H](CC(C)C)c2ccccc2N2CCCCC2)ccc1C(=O)O the viability was 97.5%.
The viability of CC[C@H](Nc1ncnc2[nH]cnc12)c1nc2cccc(F)c2c(=O)n1-c1ccccc1 is reported as 71.8%.
For Clc1ccc(CCC(Cn2ccnc2)Sc2c(Cl)cccc2Cl)cc1 (centres unmarked), the viability was 6.05%.
O=C(c1ccc(F)c(F)c1Nc1ccc(I)cc1F)N1CC(O)([C@@H]2CCCCN2)C1 gave a viability of 12.3%.
CNC(=O)c1cnn(-c2nc(N)c3ncn([C@@H]4O[C@H](CO)[C@@H](O)[C@H]4O)c3n2)c1 has a viability of 99.1%.
CCOc1ccc2nc3cc(N)ccc3c(N)c2c1 has a viability of 5.61%.
The viability of CC1(C)S[C@@H]2[C@H](NC(=O)C(C(=O)O)c3ccccc3)C(=O)N2[C@H]1C(=O)O (some centres unmarked) is reported as 94.8%.

For quick reference, copied from above (set 2):
With CC(C)C[C@@H]1NC(=O)[C@H](C)NC(=O)[C@@H](CC(C)C)NC(=O)[C@@H](CCC(=O)N2CCCC2)NC(=O)[C@H](CC(C)C)NC(=O)[C@@H](CC(C)C)NC(=O)[C@H](CC(C)C)NC1=O the logD 1,9-decadiene/water was 0.0587 log units.
CC(C)C[C@@H]1NC(=O)[C@H](CC(C)C)NC(=O)[C@@H](CC(C)C)NC(=O)[C@H](C(C)C)NC(=O)[C@H](C(C)C)NC(=O)[C@H](C)NC(=O)[C@H](C)NC1=O gave a logD 1,9-decadiene/water of -1.21 log units.
For CC(C)C[C@@H]1NC(=O)[C@H](C)NC(=O)[C@H](CCC(=O)N2CCCC2)NC(=O)[C@H](C)NC(=O)[C@H](CC(C)C)NC(=O)[C@H](CC(C)C)NC(=O)[C@H](CC(C)C)NC1=O, the logD 1,9-decadiene/water was -1.43 log units.
CC(C)C[C@@H]1NC(=O)[C@H](C(C)C)NC(=O)[C@H](C)NC(=O)[C@H](CC(C)C)NC(=O)[C@H](C(C)C)NC(=O)[C@H](CC(C)C)NC(=O)[C@@H](CC(C)C)NC1=O has a logD 1,9-decadiene/water of 0.0587 log units.
